Measurements of several laboratories.
Each numbered part is a random draw from the data of one study; scales do not carry over between parts.

Block 1
Target: RNA binding protein fox-1 homolog 2, RRM domain, GST-SBP tag (RBFOX2, Homo sapiens, UniProt O43251-10, residues 100-194)
Method: RNA Bind-n-Seq
Molecule type: RNA
Sample: in vitro
Concentration: 365 nM
Setting: natural RNA segment, single round, ends assumed
Baseline: no-protein control
Reading: higher = stronger binding
Quantity: RBNS enrichment (R)
Constant ends, left off below: GGGAGUUCUACAGUCCGACGAUC … UGGAAUUCUCGGGUGCCAA
Construct (chain): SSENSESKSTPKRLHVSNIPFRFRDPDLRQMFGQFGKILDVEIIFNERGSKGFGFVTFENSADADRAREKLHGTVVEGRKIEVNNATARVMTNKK
UGUGCUUGGAUGCUUUUUAUAAGAGUUGUCAUUGUUGGAAAUUCUUAAAUAAAACUGAUUUAAAUAAUAUGUGUCUUUGUUUUGCAGCCCUGAAUGCAAAGAAUUCAUAG: 15.4
AAUUCUAUAAGUCCAAGGUGUGCUUUAUCCUCAACAAUGACAUGAGUGAGAUGGAGCUGGUCUUUGCAGAAGAGAAAUACAACAAAUCAGGUCAACUGGAUAAGAUUGUA: 0.675
UACUGGUAACCCCUGAACCAUUUCUCCAGCCCCCUUUGCCUAUCAUCCAUCUCAAGAUAGAACCUAAGUAUUUCACGUCUGACCAGCAGUCUCUGUGGUUCUGCACAGAU: 1.26
CACACAUUCCUUUGAAAUAAGGUUUCAAUAUACAUCUACAUACUAUAUAUAUAUUUGGCAACUUGUAUUUGUGUGUAUAUAUAUAUAUAUAUGUUUAUGUAUAUAUGUGA: 0.871
UUUGCAUCUGUGUGGCUUGCUUCCAGUCUGGCCUGUCCUUUCCAGCUGCCUUUUGUCUAGCCUGCUAUGGGGGGCCAGAUUAUCUUGAUAAGAGCAGGUGAUUUGGGGAC: 1.59
CAGUAGGUCUUGUGCAGUGUCACUUGUAGUUGCAUGGUUACAGCGUGCUGAGUUUGACCAUUACAUUCAAAACUAAAACCUGUGUAGGAAGGUUAAGGUCGUGGCAGCAG: 6.36
UGUGGGUUCUUGCCAAGCAUCAGAACCAGUCUCCAGGGCCUCCCGACGCCGAUCCAUAGUACUGUACAGACCCACCGCCACCCUUCUCCUCGGAAGAUGCACUGUGCUGU: 0.657
UCCCUAGAAAUUGGCUCACCUUGGGAAACCCAGGGAAAGAAUCAGCAGGUUCUCUGCCCUCCCUAGGGGUUGGGGAAGGACCCACCCCGGUCAGCACAGUGCCUUUUCCU: 0.336
UUACUGCUAUUUUAAAAUGUCUUGAUUAUUGAAUGUGAGACCCUCUGACAUGAUUUGAGAAGCUGCACACAUAGGCAGAGUCAUUUUCCUGUUUACAUUGUUUGUUUGGG: 2.67
UCAUUGGCCCAGCUUGGCGAAAGCGAGGCACACUGCUUACUGCCUUGGGGUUGUGGAGAUGGACCCGUGACCUCGUGGAGGCCGUGUGGGGGCAGCAGCCUGGCCUGUGC: 0.688
GGGGAAGAGUGUGCUCUAGCAGGCCGUGAUCCCAGAGCCAGCAGGAUUGAUGACCAGGGCCCUUCCUUUCCUCUCCAGGGUCUCAAGUUGCCCCUGUCACUGGGGGAACA: 0.203
GGGUUCUUCUCGAAAAUGCCAAGUGGAAGACUUUGUGGCAUGCUCCAGAUUUAAAUCCAGCUGAGGCUCCCUUUGUUUUCAGUUCCAUGUAACAAUCUGGAAGGAAACUU: 0.554

Block 2
Cell line: yeast with cyclin D2-Cln2 chimera
Observed: cell growth
Action: binder
Method: competitive growth deep sequencing
Molecule type: peptide
Concentration: concentration not given
Setting: peptide tiling library
Reading: direction not given
Quantity: growth enrichment score
RVSGLLSWTLSRVLWL: -0.763
KVKRRLDLDIDGLQKE: 0.952
SPPRGRRLFPPGPAGF: -0.894
NEGVSNAVRRSLYIRD: -0.272
GFGFLLFICKLTF: -0.662
NSMKELNFSHLPSNSV: 0.503
KRNLLNEFDRII: -0.367
RQVRRDLFAF: -0.893
DSGFCLDSPGPLDSKE: -0.554
VKTKKRLNFDDK: 0.475
KSKHEEEEWTDDDLVE: -0.456
KRRLDLETDHQY: -0.505

Block 3
Target: Histone acetyltransferase KAT6A, winged helix 2, GST fusion (KAT6A, Homo sapiens, UniProt Q92794, residues 85-181)
Method: protein binding microarray
Molecule type: double-stranded DNA, one strand shown
Sample: in vitro
Concentration: not given
Setting: 8-mer, flanks averaged, mean of 2 arrays, mostly near background
Baseline: not given
Reading: higher = stronger binding
Quantity: E-score
Target sequence (chain): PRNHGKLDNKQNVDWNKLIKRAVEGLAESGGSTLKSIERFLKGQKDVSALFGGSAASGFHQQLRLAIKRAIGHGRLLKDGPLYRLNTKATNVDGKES
AAGCACTT: -0.119
ACGAGTCG: 0.0278
CCAGGAGC: 0.0447
ATATCGGG: -0.169
GGCGTTAC: 0.0453
GACAGCGA: 0.0201
AAGCATAC: 0.101
CAAAGTTA: 0.0281
TACTTGGA: 0.04
ACCGTAAT: -0.15
TAGGGCGA: 0.00551
AACCTGAC: -0.134
ATGATGGC: -0.118
ACCCCTTG: -0.104
CAAATTCC: -0.0998
CGCCTACG: 0.046
GAGTCGAA: 0.068
CCGTCTGA: -0.0609
AGATATCT: 0.0664
CTCAACAG: -0.0465
AGTGGATC: 0.0141
CTTGGTCC: 0.007
GGGGTCAA: 0.0923
AGTCTTAC: -0.207
AATTGTCC: -0.132

Block 4
Target: Ras GTPase-activating protein-binding protein 1, RRM domain (G3BP1, Homo sapiens, UniProt Q13283)
Sequence of UniProt Q13283 (whole entry, looked up): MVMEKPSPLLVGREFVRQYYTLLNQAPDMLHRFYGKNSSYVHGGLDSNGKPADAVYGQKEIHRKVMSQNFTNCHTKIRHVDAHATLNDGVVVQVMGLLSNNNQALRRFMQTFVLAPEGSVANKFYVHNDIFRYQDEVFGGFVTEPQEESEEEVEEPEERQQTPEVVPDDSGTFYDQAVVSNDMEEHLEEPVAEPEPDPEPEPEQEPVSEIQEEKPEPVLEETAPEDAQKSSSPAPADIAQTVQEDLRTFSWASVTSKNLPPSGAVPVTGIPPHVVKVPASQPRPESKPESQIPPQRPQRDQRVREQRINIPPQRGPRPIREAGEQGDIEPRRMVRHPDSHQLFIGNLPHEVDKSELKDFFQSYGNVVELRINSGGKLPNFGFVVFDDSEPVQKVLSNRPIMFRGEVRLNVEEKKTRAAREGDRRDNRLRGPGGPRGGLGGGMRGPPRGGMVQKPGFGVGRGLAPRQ
Method: RNA Bind-n-Seq
Molecule type: RNA
Sample: in vitro
Concentration: 1 µM
Setting: whole 134-nt RNA, ends assumed
Together with: 150 mM KCl
Baseline: input library
Reading: higher = stronger binding
Quantity: log2 enrichment
Constant ends, left off below: GGGAGUUCUACAGUCCGACGAUC … UGGAAUUCUCGGGUGUCAAGG
AAGUCCUGUGCUACACAUCGUAUGUACCGAAUCGGGGUGGGGUGGGGAAAAAGGGGAAAGUAUUAUGUUACGCCGUUCGGAUCUGCACUU: 0.503
CACAGACAACACGCACCCACACAGACACAGAGGGAAGGGGUUGGGAUGGUGACAGGGUGCACAGCAGGGCGGGGUAGGACCCCAGCCCCU: -0.107
UAACUUUAGAGGAGGAUCUGAUGGAUAUGGCAGUGGACGUGGAUUUGGGGAUUGCUAUAAUGGGUAUGGAGGAGGACCUGGAGGUGGCAA: -0.316
AAGUCCUGUGCUACACAUCGUAUGUACCGAAUCGGAAAGGAAAAAGGUUUUUUUGGAAAGUAUUAUGUUACGCCGUUCGGAUCUGCACUU: -0.185
GCAGGAAGUAAAAACAAAUGGAAAUGCUUCAAAUAGUGGCAGGGGUGGGGGUUGCUAAGGAAAGGGUGGGAUGGGAGUGGGUAAAGAGUU: 1.25
CAAGUCCUGUGCUACACAUCGUAUGUACCGAAUCGGGGCCGGGGCCGGGGCCGGGGAAAGUAUUAUGUUACGCCGUUCGGAUCUGCACUU: -1.45
AAGUCCUGUGCUACACAUCGUAUGUACCGAAUCGGGGAAAAGGAAAAGGGGAAAAGGAAAGUAUUAUGUUACGCCGUUCGGAUCUGCACU: -0.12
GCAGGAAGUAAAAACAAAUGGAAAUGCUUCGGAUAGUGGCAGGGGUGGGGGUUGCUAAGGAAAGGGUGGGAUGGGAGUGGGUAAAGAUUU: 0.681
CAAGUCCUGUGCUACACAUCGUAUGUACCGAAUCGGUUUUUGGAAAAAGGUUUGGAAAGUAUUAUGUUACGCCGUUCGGAUCUGCACUUC: -0.384
GCAGGAAGUAAAAACAAAUGGAAAUGCUUCGGAUAGUGGCAGGGGUGGGGGUUGCUAAGGAAAGGGAGGGAUGGGAGUGGGUAAAGAGUU: 1.15
UGUGCUACACAUCGUAUGUACCGAAUCGGGGAAAAAAAGGGGUUUUUUUGGGGAAAAAGGGGAAAGUAUUAUGUUACGCCGUUCGGAUCU: 1.15
UCCUCAAGUCCUGUGCUACACAUCGUAUGUACCGAAUCGGAGGUUUGGAGGAAAGUAUUAUGUUACGCCGUUCGGAUCUGCACUUCCAGC: -0.275
UGGGAGGUGGAUUUUGUUUAUUUUUUUAGCUCAUUUCCAGGGGUGGGAAUUUUUUUUUAAUAUGUGUCAUGAAUAAAGUUGUUUUUUAAA: 2.12
CUCAAGUCCUGUGCUACACAUCGUAUGUACCGAAUCGGUUGGGGUUGGUUGGGGAAAGUAUUAUGUUACGCCGUUCGGAUCUGCACUUCC: 0.184

Block 5
Target: Interferon regulatory factor 5, full length, phosphomimetic (IRF5, Homo sapiens, UniProt Q13568-2, residues 1-514, S451D/S453D/S456D/S462D)
Method: protein-binding microarray
Molecule type: double-stranded DNA, one strand shown
Sample: in vitro
Concentration: 940 nM top
Setting: 60-bp whole probe
Together with: salmon DNA 0.4 mg/ml
Baseline: random background probes
Reading: higher = stronger binding
Quantity: fitted relative affinity
Constant ends, left off below: GCCTAGCAC … GTCTTGATTCGCTTGACGCTGCTG
CAGAAAATAGAAACTCGTGTTGTGCTA: 0.55 z-score
GACGTACTGGGGTATCGAGACGTGCTA: 0.83 z-score
GACGGTCTCGGTAACGGGACGTGCTAG: 2.8 z-score
GACGGTTTCGGGAATGGGGACGTGCTA: 7.04 z-score
TCACCAATCTCTCTTCAACTGTGCTAG: 0.961 z-score
TTAGGCTTCGGTCTCGGTTAGTGCTAG: 2.01 z-score
TCTATTTTCTGAATGTCTTCGTGCTAG: 1.09 z-score
GACGAACTGATTCTCGAGACGTGCTAG: 0.684 z-score
GAGTTCCTCTCTAGGCACTGGTGCTAG: 0.519 z-score
TACGGACTGCTACTGCTGACGTGCTAG: -0.527 z-score
TTATGTATCCTTATCCTTTAGTGCTAG: 0.859 z-score
TTAGAACTGAGTAACGATTAGTGCTAG: -0.0819 z-score
TCATTTTTGGTTTCTGGACTGTGCTAG: 3.34 z-score
GACGGTTTTGACTATCGGGACGTGCTA: 0.336 z-score
ATAGGTATCCTTATCCTTTAGTGCTAG: 0.303 z-score
GACGATCTCAGTTTCTAGACGTGCTAG: 1.28 z-score
